Measurements pooled from the literature.
Values joined by “and” are separate records of one study, mostly repeats; a detail may differ.
U2AF2: U2AF2 148-342 (Homo sapiens, UniProt P26368)
Sequence of UniProt P26368 (whole entry, looked up): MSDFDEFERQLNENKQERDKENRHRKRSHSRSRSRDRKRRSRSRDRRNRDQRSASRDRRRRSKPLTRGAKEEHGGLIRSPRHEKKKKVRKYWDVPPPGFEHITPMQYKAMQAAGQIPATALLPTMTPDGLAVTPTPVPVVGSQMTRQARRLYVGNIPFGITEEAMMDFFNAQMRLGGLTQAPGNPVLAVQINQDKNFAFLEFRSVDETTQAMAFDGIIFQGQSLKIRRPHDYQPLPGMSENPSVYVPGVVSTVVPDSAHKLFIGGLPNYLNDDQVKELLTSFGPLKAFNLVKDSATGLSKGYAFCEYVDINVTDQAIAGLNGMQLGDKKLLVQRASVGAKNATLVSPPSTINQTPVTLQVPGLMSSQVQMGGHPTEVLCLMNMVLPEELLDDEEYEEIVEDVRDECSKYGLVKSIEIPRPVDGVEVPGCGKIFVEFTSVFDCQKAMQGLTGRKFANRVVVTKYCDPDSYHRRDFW
B1: tas3 380-549 (Schizosaccharomyces pombe, UniProt O94687); sequence looked up; chain GAHFHLGNANDFNMQGSSRKRKASDRQRESRENELPTKKLNASDSHNPLASLTTDKNDLYINWLKSLSFFQTNSSCAEALVKVIPHYHNKLIDFSQVLQLVFSASEKFPIQENQPLPEQLMFLSNLEKQTPFAKAVGSSIYKLVTGKNLSLDFASQILKEASILEHKNEK
B2: STAT1 (human); sequence looked up; chain SQWYELQQLDSKFLEQVHQLYDDSFPMEIRQYLAQWLEKQDWEHAANDVSFATIRFHDLLSQLDDQYSRFSLENNFLLQHNIRKSKRNLQDNFQEDPIQMSMIIYSCLKEERKILENAQRFNQAQSGNIQSTVMLDKQKELDSKVRNVKDKVMCIEHEIKSLEDLQDEYDFKCKTLQNREHETNGVAKSDQKQEQLLLKKMYLMLDNKRKEVVHKIIELLNVTELTQNALINDELVEWKRRQQSACIGGPPNACLDQLQNWFTIVAESLQQVRQQLKKLEELEQKYTYEHDPITKNKQVLWDRTFSLFQQLIQSSFVVERQPCMPTHPQRPLVLKTGVQFTVKLRLLVKLQELNYNLKVKVLFDKDVNERNTVKGFRKFNILGTHTKVMNMEESTNGSLAAEFRHLQLKEQKNAGTRTNEGPLIVTEELHSLSFETQLCQPGLVIDLETTSLPVVVISNVSQLPSGWASILWYNMLVAEPRNLSFFLTPPCARWAQLSEVLSWQFSSVTKRGLNVDQLNMLGEKLLGPNASPDGLIPWTRFCKENINDKNFPFWLWIESILELIKKHLLPLWNDGCIMGFISKERERALLKDQQPGTFLLRFSESSREGAITFTWVERSQNGGEPDFHAVEPYTKKELSAVTFPDIIRNYKVMAAENIPENPLKYLYPNIDKDHAFGKYYSRPKEAPEPMELDGPKGTGYIKTELISVSEVHPSRLQTTDNLLPMSPEEFDEVSRIVGSVEFDSMMNTV
B3: NUMA1 1-705 (Homo sapiens, UniProt Q14980); LD555 dye on C-terminal SNAP; sequence looked up; chain MTLHATRGAALLSWVNSLHVADPVEAVLQLQDCSIFIKIIDRIHGTEEGQQILKQPVSERLDFVCSFLQKNRKHPSSPECLVSAQKVLEGSELELAKMTMLLLYHSTMSSKSPRDWEQFEYKIQAELAVILKFVLDHEDGLNLNEDLENFLQKAPVPSTCSSTFPEELSPPSHQAKREIRFLELQKVASSSSGNNFLSGSPASPMGDILQTPQFQMRRLKKQLADERSNRDELELELAENRKLLTEKDAQIAMMQQRIDRLALLNEKQAASPLEPKELEELRDKNESLTMRLHETLKQCQDLKTEKSQMDRKINQLSEENGDLSFKLREFASHLQQLQDALNELTEEHSKATQEWLEKQAQLEKELSAALQDKKCLEEKNEILQGKLSQLEEHLSQLQDNPPQEKGEVLGDVLQLETLKQEAATLAANNTQLQARVEMLETERGQQEAKLLAERGHFEEEKQQLSSLITDLQSSISNLSQAKEELEQASQAHGARLTAQVASLTSELTTLNATIQQQDQELAGLKQQAKEKQAQLAQTLQQQEQASQGLRHQVEQLSSSLKQKEQQLKEVAEKQEATRQDHAQQLATAAEEREASLRERDAALKQLEALEKEKAAKLEILQQQLQVANEARDSAQTSVTQAQREKAELSRKVEELQACVETARQEQHEAQAQVAELELQLRSEQQKATEKERVAQEKDQLQEQLQ
B4: dlg1 1-97 L14G/L15G/Y18G (Drosophila melanogaster, UniProt P31007); sequence looked up; chain MPVKKQEAHRALEGGEDGHARLSEPQDRALRIAIERVIRIFKSRLFQALLDIQEFYELTLLDDSKSIQQKTAETLQIATKWEKDGQAVKIADFIKSS
B5: PF1070 1-140 E34A (Pyrococcus furiosus, UniProt Q8U1Y4); sequence looked up; chain MPSSSKSDFSFSTLIIPQHYLRAILKVVSSSSVAVCGFLFGKENRVLKVRFIRNRLNSPVEFEMDPEEMLKALEEAEQENLEVVGIFHSHIACPPIPSGKDLEGMKRWPVIWLIVNEKGEYKAWILSEKNKISEVKIVVE
B6: human septin-7; sequence looked up; chain SVSARSAAAEERSVNSSTMVAQQKNLEGYVGFANLPNQVYRKSVKRGFEFTLMVVGESGLGKSTLINSLFLTDLYSPEYPGPSHRIKKTVQVEQSKVLIKEGGVQLLLTIVDTPGFGDAVDNSNCWQPVIDYIDSKFEDYLNAESRVNRRQMPDNRVQCCLYFIAPSGHGLKPLDIEFMKRLHEKVNIIPLIAKADTLTPEECQQFKKQIMKEIQEHKIKIYEFPETDDEEENKLVKKIKDRLPLAVVGSNTIIEVNGKRVRGRQYPWGVAEVENGEHCDFTILRNMLIRTHMQDLKDVTNNVHYENYRSRKLAAVTYNGVDNNKNKGQLTKSPLAQMEEERREHVAKMKKMEMEMEQVFEMKVKEKVQKLKDSEAELQRRHEQMKKNLEAQHKELEEKRRQFEDEKANWEAQQRILEQQNSSRTLEKNKKKGKIF
B7: sodN mature (Streptomyces coelicolor, UniProt P80735); sequence looked up; chain HCDLPCGVYDPAQARIEAESVKAVQEKMAGNDDPHFQTRATVIKEQRAELAKHHVSVLWSDYFKPPHFEKYPELHQLVNDTLKALSAAKGSKDPATGQKALDYIAQIDKIFWETKKA
B8: clcA 1-465 (Escherichia coli, UniProt P37019); chain MKTDTPSLETPQAARLRRRQLIRQLLERDKTPLAILFMAAVVGTLVGLAAVAFDKGVAWLQNQRMGALVHTADNYPLLLTVAFLCSAVLAMFGYFLVRKYAPEAGGSGIPEIEGALEDQRPVRWWRVLPVKFFGGLGTLGGGMVLGREGPTVQIGGNIGRMVLDIFRLKGDEARHTLLATGAAAGLAAAFNAPLAGILFIIEEMRPQFRYTLISIKAVFIGVIMSTIMYRIFNHEVALIDVGKLSDAPLNTLWLYLILGIIFGIFGPIFNKWVLGMQDLLHRVHGGNITKWVLMGGAIGGLCGLLGFVAPATSGGGFNLIPIATAGNFSMGMLVFIFVARVITTLLCFSSGAPGGIFAPMLALGTVLGTAFGMVAVELFPQYHLEAGTFAIAGMGALLAASIRAPLTGIILVLEMTDNYQLILPMIITGLGATLLAQFTGGKPLYSAILARTLAKQEAEQLARSK
B9: PGL-3 1-447 (Caenorhabditis elegans, UniProt G5EBV6); sequence looked up; chain MEANKRQIVEVDGIKSYFFPHLAHYLASNDELLVNNIAQANKLAAFVLGATDKRPSNEEIAEMILPNDSSAYVLAAGMDVCLILGDDFRPKFDSGAEKLSQLGQAHDLAPIIDDEKKISMLARKTKLKKSNDAKILQVLLKVLGAEEAEEKFVELSELSSALDLDFDVYVLAKLLGFASEELQEEIEIIRDNVTDAFEACKPLLKKLMIEGPKIDSVDPFTQLLLTPQEESIEKAVSHIVARFEEASAVEDDESLVLKSQLGYQLIFLVVRSLADGKRDASRTIQSLMPSSVRAEVFPGLQRSVFKSAVFLASHIIQVFLGSMKSFEDWAFVGLAEDLESTWRRRAIAELLKKFRISVLEQCFSQPIPLLPQSELNNETVIENVNNALQFALWITEFYGSESEKKSLNQLQFLSPKSKNLLVDSFKKFAQGLDSKDHVNRIIESLEK
B10: cfbA 1-143 S11V (Methanocaldococcus jannaschii, UniProt Q58380); chain MEALVLVGHGVRLPYSKELLVKLAEKVKERNLFPIVEIGLMEFSEPTIPQAVKKAIEQGAKRIIVVPVFLAHGIHTTRDIPRLLGLIEDNHEHHHEHSHHHHHHHHHEHEKLEIPEDVEIIYREPIGADDRIVDIIIDRAFGR
B11: dnaD R73A (Bacillus subtilis, UniProt P39787); chain GSHMKKQQFIDMQEQGTSTIPNLLLTHYKQLGLNETELILLLKIKMHLEKGSYFPTPNQLQEGMSISVEECTNRLAMFIQKGFLFIEECEDQNGIKFEKYSLQPLWGKLYEYIQLAQNQTQERKAEGEQKSLYTIFEEEFARPLSPLECETLAIWQDQDQHDAQLIKHALKEAVLSGKLSFRYIDRILFEWKKNGLKTVEQAKIHSQKFRRVQAKQNEPQKEYKRQVPFYNWLEQ
B12: CASP2 170-452 D333A/D347A (Homo sapiens, UniProt P42575); sequence looked up; chain GPVCLQVKPCTPEFYQTHFQLAYRLQSRPRGLALVLSNVHFTGEKELEFRSGGDVDHSTLVTLFKLLGYDVHVLCDQTAQEMQEKLQNFAQLPAHRVTDSCIVALLSHGVEGAIYGVDGKLLQLQEVFQLFDNANCPSLQNKPKMFFIQACRGDETDRGVDQQAGKNHAGSPGCEESAAGKEKLPKMRLPTRSDMICGYACLKGTAAMRNTKRGSWYIEALAQVFSERACDMHVADMLVKVNALIKDREGYAPGTEFHRCKEMSEYCSTLCRHLYLFPGHPPT
B13: EIF4E2/GIGYF2 52-234 / 35-105 (Homo sapiens); chain 1 AEHPLQYNYTFWYSRRTPGRPTSSQSYEQNIKQIGTFASVEQFWRFYSHMVRPGDLTGHSDFHLFKEGIKPMWEDDANKNGGKWIIRLRKGLASRCWENLILAMLGEQFMVGEEICGAVVSVRFQEDIISIWNKTASDQATTARIRDTLRRVLNLPPNTIMEYKTHTDSIKMPGRLGPQRLLF; chain 2 KYKLADYRYGREEMLALFLKDNKIPSDLLDKEFLPILQEEPLPPLALVPFTEEEQRNFSMSVNSAAVLRLT
B14: DPA 6-281 (Toxoplasma gondii, UniProt A0A7J6KBZ0); sequence looked up; chain IYKQFTSRTLLNFFEVAALTDGETNESVAAVCKIAAKDPAIVGVSVRPAFVRFIRQELVKSAPEVAGIKVCAAVNFPEGTGTPDTVSLEAVGALKDGADEIECLIDWRRMNENVADGESRIRLLVSEVKKVVGPKTLKVVLSGGELQGGDIISRAAVAALEGGADFLQTSSGLGATHATMFTVHLISIALREYMVRENERIRVEGINREGAAVRCIGIKIEVGDVHMAETADFLMQMIFENGPRSIVRDKFRVGGGFNLLKELRDCYESWDSVGVS
B15: groES (Escherichia coli, UniProt P0A6F9); chain MNIRPLHDRVIVKRKEVETKSAGGIVLTGSAAAKSTRGEVLAVGNGRILENGEVKPLDVKVGDIVIFNDGYGVKSEKIDNEEVLIMSESDILAIVEA

| Substance | tested on | test | test system | setting | how to read | quantity | value |
| --- | --- | --- | --- | --- | --- | --- | --- |
| B1 (tas3 380-549) | itself | SEC |  |  |  | subunits per oligomer | 3 |
| B2 (STAT1) | PP6C (human) | co-immunoprecipitation, IP-MS | CYB5R4 knockout cells | concentration not given | relative to: CYB5R4 knockout over parental | log2 fold change | 1.85 |
| B3 (NUMA1 1-705) | itself | mass photometry |  |  |  | subunits per oligomer | 2 |
| B4 (dlg1 1-97 L14G/L15G/Y18G) | itself | AUC |  |  |  | subunits per oligomer | 8 |
| B5 (PF1070 1-140 E34A) | itself | SEC |  |  |  | subunits per oligomer | 2 |
| B6 (human septin-7) | CYB5R4 knockout human cells | PP4 interaction, 3xFLAG-PP4C IP-MS |  | concentration not given | relative to: CYB5R4 KO over parental | log2 fold change | -0.85 |
| B7 (sodN mature) | itself | ESI-MS |  | denaturing conditions |  | subunits per oligomer | 6 |
| B8 (clcA 1-465) | itself | SEC |  |  |  | subunits per oligomer | 2 |
| B9 (PGL-3 1-447) | itself | mass photometry |  |  |  | subunits per oligomer | 6 and 4 |
| B10 (cfbA 1-143 S11V) | itself | SEC |  |  |  | subunits per oligomer | 2 |
| ptcA fragment (Enterococcus faecalis) (sequence not shown) | itself | cross-linking |  | pH 8.25 |  | subunits per oligomer | 3 |
| UGUUAUGUG (ssRNA) | U2AF2 | sequencing of bound RNA | RNA | motif only |  | Kd | 0.58 µM |
| B11 (dnaD R73A) | itself | SEC |  |  |  | subunits per oligomer | 2 |
| B12 (CASP2 170-452 D333A/D347A) | itself | SEC |  |  |  | subunits per oligomer | 2 |
| RQIVDAQAVCTRCKESADFWCFECEQLLCAKCFEAHQWFLKHEARPLAE (PML 120-168 (Homo sapiens, UniProt P29590-1); sequence looked up) | itself | AUC |  |  |  | subunits per oligomer | 2 |
| B13 (EIF4E2/GIGYF2 52-234 / 35-105) | itself | SAXS |  |  |  | subunits per oligomer | 2 |
| B14 (DPA 6-281) | itself | SEC |  |  |  | subunits per oligomer | 2 |
| UCCAUAUUC (ssRNA) | U2AF2 | sequencing of bound RNA | RNA | motif only |  | Kd | 10.6 µM |
| B15 (groES) | itself | cryo-EM |  |  |  | subunits per oligomer | 7 |
| VSRVSHEELEDRFLRLHDENILLKQHARKQEDKIKRMATKLIRLVNDKKRYERVGG (RPGRIP1L CC1 42-97 R47H (Mus musculus, UniProt Q8CG73); sequence looked up) | itself | SEC-MALS |  |  |  | subunits per oligomer | 2 |

Some of these lines once more:
| Substance | tested on | test | test system | setting | how to read | quantity | value |
| --- | --- | --- | --- | --- | --- | --- | --- |
| B10 (cfbA 1-143 S11V) | itself | SEC |  |  |  | subunits per oligomer | 2 |
| ptcA fragment (Enterococcus faecalis) (sequence not shown) | itself | cross-linking |  | pH 8.25 |  | subunits per oligomer | 3 |
